Results pooled from the literature.
Parts stem from different laboratories: compare values within a part only.
UniProt Q84WU6, sequence (whole entry, looked up): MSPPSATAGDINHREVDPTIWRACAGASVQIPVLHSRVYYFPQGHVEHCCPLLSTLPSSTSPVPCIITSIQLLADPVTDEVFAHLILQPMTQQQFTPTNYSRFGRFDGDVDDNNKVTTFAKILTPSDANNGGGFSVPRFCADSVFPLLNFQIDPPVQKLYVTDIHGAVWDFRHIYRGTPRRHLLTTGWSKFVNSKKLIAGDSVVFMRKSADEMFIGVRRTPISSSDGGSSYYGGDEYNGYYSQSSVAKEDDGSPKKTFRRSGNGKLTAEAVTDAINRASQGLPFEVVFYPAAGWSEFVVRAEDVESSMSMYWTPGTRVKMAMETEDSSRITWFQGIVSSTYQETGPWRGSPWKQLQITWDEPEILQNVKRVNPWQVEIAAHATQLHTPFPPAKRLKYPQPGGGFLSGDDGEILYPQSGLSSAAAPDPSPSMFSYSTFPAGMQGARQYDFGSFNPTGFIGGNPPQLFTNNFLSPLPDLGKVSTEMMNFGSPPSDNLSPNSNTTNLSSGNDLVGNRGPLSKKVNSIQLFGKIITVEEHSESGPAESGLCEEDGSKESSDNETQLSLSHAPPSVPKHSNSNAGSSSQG

Series 1
Target: Fragile X messenger ribonucleoprotein 1, C-terminal low-complexity region (Fmr1, Mus musculus, UniProt P35922)
Technique: RNA Bind-n-Seq
Molecule type: RNA
Sample: in vitro
Concentration: 200 nM
Notes: whole 134-nt RNA, ends assumed
Together with: 150 mM LiCl
Relative to: input library
Reading: higher = stronger binding
All molecules: 7-deaza-guanosine replaces G
Constant ends, left off below: GGGAGUUCUACAGUCCGACGAUC … UGGAAUUCUCGGGUGUCAAGG
Oligonucleotide	log2 enrichment
CAAGUCCUGUGCUACACAUCGUAUGUACCGAAUCGGGGCCGGGGCCGGGCCGGGGAAAGUAUUAUGUUACGCCGUUCGGAUCUGCACUUC	0.432
AAGUCCUGUGCUACACAUCGUAUGUACCGAAUCGGGAAAGGGGAAAGGGAAAGGGGAAAGUAUUAUGUUACGCCGUUCGGAUCUGCACUU	0.381
UAACUUUAGAGGAGGAUCUGAUGGAUAUGGCAGUGGACGUGGAUUUGGGGAUGGCUAUAAUGCGUAUGGAGGAGGACCUGGAGGUGGCAA	0.804
UCAAGUCCUGUGCUACACAUCGUAUGUACCGAAUCGGGAGGGAGGGAAAAAGGGAAAGUAUUAUGUUACGCCGUUCGGAUCUGCACUUCC	-0.599
CUCAAGUCCUGUGCUACACAUCGUAUGUACCGAAUCGGGCCGGCCGGGGCCGGAAAGUAUUAUGUUACGCCGUUCGGAUCUGCACUUCCA	1.41
ACCAUGCAGGUGGGCAUCUUUGGGAAGUGGGGCAAGGGGGGGAUAGGGAGGGGGGUAACACUUUGGGAACAGGUGGUCUCAGGUCGUUUC	1.4
CACAGACAACACGCACCCACACAGACACAGAGGGAAGGGGUUGGGAUGGGGACAGGGCGCACAGCAGGGCGGGGUAGGACCCCAGCCCCU	0.326
CAAGUCCUGUGCUACACAUCGUAUGUACCGAAUCGGGCCCGGCCCGGGCCCGGGGAAAGUAUUAUGUUACGCCGUUCGGAUCUGCACUUC	-3.2

Series 2
Target: TAR DNA-binding protein 43, full length, His tag (TARDBP, Homo sapiens, UniProt Q13148, residues 1-414)
Technique: RNA Bind-n-Seq
Molecule type: RNA
Sample: in vitro
Concentration: 20 nM
Notes: 6-mer, flanks averaged, single round
Together with: 150 mM KCl
Relative to: input library
Reading: higher = stronger binding
Oligonucleotide	6-mer enrichment (R)
GAAGCG	1.79
CGUAGG	1.35
GUGCUC	0.772
ACACCA	0.74
GAGUCG	1.36
AAUUAG	0.681
AUCGCG	0.878
CGGUCU	0.728

Other studies, line by line
B1: ARF14 497-605 (Arabidopsis thaliana, UniProt Q9LQE8); chain SPTEIQSKQFSSTRTCTKVQMQGVTIGRAVDLSVLNGYDQLILELEKLFDLKGQLQARNQWEIAFTNNEEDKMLVGEDPWPEFCNMVKKIFIYSKEEVKNLKSRKSLSS
Substance	target or system	test	system	conditions	how to read	quantity	value
B1 (ARF14 497-605)	ARF17 (Arabidopsis thaliana, UniProt Q84WU6)	two-hybrid		weak activation fusion	relative to: out of 3 tests, higher = firmer interaction	positive tests	0
Nc1cccc(-c2c3c(=O)[nH][nH]c(=O)c3c3n2CCC3)c1			human, microsomes or S9	2 µM, 0.5 h		remaining compound	> 99%

Some of these lines once more (other studies, line by line):
Substance	target or system	test	system	conditions	how to read	quantity	value
Nc1cccc(-c2c3c(=O)[nH][nH]c(=O)c3c3n2CCC3)c1			human, microsomes or S9	2 µM, 0.5 h		remaining compound	> 99%
B1 (ARF14 497-605)	ARF17 (Arabidopsis thaliana, UniProt Q84WU6)	two-hybrid		weak activation fusion	relative to: out of 3 tests, higher = firmer interaction	positive tests	0
